Assay results of several laboratories.
Every numbered part comes from another study and shows a few of its results, in no order.
UniProt Q96GD4, sequence (whole entry, looked up): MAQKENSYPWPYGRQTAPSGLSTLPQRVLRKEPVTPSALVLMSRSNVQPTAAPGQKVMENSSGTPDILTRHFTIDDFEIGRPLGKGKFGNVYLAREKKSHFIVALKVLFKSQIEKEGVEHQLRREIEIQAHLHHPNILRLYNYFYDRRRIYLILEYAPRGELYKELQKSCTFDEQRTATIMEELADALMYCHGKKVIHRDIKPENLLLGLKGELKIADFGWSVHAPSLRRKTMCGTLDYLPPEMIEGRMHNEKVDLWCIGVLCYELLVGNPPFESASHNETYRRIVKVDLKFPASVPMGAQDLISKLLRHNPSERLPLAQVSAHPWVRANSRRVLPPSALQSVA
UniProt Q92772, sequence (whole entry, looked up): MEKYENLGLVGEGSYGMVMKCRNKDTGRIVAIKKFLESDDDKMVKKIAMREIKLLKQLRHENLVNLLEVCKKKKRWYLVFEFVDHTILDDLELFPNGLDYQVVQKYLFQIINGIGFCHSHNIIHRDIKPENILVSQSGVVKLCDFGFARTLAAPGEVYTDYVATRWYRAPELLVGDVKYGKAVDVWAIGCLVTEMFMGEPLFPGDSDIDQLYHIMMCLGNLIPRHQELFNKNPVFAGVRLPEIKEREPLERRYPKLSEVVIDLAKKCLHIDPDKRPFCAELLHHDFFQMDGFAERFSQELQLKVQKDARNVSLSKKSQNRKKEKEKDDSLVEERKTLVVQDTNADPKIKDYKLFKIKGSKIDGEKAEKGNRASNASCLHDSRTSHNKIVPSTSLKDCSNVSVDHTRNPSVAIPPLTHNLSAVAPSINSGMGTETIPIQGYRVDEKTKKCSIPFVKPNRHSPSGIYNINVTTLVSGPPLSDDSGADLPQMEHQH
UniProt P29376, sequence (whole entry, looked up): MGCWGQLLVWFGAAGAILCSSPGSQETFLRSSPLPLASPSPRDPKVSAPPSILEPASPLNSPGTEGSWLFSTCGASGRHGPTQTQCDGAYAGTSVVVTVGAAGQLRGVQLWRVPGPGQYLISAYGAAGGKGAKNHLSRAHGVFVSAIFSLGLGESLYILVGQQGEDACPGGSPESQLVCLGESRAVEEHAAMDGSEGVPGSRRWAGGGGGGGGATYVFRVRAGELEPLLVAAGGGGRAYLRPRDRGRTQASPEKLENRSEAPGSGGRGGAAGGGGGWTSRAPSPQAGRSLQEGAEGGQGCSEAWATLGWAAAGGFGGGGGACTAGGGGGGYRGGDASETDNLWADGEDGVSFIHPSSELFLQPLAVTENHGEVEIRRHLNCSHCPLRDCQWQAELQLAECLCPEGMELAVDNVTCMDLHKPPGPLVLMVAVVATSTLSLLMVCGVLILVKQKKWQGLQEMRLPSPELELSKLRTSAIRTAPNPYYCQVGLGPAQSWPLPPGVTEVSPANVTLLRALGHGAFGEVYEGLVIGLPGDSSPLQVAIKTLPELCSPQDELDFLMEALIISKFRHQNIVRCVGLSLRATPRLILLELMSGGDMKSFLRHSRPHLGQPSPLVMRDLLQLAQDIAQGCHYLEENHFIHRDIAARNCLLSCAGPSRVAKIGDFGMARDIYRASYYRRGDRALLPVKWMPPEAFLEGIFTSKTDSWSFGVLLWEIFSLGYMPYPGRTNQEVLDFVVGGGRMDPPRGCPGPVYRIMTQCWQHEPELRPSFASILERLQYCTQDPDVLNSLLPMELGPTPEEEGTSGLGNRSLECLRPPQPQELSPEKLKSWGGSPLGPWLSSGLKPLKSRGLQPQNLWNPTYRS
UniProt Q96Q40, sequence (whole entry, looked up): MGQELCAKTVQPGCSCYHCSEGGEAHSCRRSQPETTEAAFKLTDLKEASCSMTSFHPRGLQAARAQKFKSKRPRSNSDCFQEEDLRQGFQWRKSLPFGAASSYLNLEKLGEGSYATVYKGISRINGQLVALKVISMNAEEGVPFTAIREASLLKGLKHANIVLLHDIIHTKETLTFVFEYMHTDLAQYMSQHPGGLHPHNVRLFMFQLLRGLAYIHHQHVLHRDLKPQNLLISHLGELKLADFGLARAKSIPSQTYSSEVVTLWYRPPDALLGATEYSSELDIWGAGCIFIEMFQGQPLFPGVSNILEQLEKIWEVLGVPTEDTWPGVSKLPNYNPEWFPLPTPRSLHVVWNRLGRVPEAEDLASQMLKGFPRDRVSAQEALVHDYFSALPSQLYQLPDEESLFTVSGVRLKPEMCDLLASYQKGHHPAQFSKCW
UniProt Q8NEV4, sequence (whole entry, looked up): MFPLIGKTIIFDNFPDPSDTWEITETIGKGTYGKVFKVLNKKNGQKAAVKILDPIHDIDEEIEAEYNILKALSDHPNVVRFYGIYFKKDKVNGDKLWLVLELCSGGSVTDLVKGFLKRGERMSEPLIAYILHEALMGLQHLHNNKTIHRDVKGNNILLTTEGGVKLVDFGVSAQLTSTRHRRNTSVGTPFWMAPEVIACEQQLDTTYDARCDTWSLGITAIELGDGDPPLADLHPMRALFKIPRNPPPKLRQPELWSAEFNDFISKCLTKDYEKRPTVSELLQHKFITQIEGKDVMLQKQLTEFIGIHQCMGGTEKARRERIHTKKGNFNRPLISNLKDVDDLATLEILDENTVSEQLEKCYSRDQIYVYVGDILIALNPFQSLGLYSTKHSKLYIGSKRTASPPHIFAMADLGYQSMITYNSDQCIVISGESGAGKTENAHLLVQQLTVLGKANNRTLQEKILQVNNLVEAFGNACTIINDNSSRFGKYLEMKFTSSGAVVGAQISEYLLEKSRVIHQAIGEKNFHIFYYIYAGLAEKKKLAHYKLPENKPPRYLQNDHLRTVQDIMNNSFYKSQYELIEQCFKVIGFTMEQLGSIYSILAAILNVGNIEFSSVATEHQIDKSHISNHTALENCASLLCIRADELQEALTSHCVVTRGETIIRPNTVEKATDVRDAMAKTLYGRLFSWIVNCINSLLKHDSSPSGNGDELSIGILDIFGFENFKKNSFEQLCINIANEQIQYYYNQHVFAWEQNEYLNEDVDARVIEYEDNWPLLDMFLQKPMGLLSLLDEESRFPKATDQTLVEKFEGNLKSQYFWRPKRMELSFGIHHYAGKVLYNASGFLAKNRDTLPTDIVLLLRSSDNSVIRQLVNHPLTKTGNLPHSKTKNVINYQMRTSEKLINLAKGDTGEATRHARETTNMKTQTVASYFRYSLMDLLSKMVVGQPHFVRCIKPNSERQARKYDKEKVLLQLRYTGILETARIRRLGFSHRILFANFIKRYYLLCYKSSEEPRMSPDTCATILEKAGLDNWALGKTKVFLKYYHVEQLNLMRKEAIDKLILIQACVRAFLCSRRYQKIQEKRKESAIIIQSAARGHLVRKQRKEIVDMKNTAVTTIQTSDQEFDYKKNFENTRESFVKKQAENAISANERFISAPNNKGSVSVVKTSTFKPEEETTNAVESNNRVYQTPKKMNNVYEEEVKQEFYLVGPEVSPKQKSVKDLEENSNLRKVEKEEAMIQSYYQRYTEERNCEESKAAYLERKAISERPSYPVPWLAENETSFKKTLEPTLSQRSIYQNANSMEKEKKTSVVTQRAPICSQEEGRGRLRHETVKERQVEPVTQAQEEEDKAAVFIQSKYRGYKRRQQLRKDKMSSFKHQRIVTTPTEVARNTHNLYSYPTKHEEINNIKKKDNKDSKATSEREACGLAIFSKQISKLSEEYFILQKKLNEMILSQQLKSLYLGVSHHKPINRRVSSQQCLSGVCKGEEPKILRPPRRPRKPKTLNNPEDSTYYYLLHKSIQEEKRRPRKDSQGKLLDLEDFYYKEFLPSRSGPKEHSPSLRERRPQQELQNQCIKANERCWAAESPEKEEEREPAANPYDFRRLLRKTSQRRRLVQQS
UniProt P51817, sequence (whole entry, looked up): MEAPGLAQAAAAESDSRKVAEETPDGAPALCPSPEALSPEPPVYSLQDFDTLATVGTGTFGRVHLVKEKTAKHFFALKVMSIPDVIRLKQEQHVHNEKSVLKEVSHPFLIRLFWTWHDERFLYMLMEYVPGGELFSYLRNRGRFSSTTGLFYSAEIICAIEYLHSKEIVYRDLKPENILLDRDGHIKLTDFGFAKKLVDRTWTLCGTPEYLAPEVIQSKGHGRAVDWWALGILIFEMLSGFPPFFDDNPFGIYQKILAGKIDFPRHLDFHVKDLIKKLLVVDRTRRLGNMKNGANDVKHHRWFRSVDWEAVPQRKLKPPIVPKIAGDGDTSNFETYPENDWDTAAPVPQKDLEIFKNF
UniProt Q14012, sequence (whole entry, looked up): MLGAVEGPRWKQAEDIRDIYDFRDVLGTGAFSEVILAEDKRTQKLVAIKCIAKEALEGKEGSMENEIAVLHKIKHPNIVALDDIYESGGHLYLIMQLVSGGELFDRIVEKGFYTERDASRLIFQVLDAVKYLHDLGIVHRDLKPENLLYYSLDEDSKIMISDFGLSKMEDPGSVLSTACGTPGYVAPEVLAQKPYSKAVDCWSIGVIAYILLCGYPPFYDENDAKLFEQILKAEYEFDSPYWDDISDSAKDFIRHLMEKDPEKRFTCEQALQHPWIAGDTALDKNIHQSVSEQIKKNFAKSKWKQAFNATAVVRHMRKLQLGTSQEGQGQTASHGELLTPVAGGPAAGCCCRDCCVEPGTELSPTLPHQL

Study 1
Target: Megakaryocyte-associated tyrosine-protein kinase (MATK, Homo sapiens, UniProt P42679)
Observed: enzyme activity
Action: inhibitor
Concentration: 0.5 µM
Baseline: control
Target sequence (P42679 1-507): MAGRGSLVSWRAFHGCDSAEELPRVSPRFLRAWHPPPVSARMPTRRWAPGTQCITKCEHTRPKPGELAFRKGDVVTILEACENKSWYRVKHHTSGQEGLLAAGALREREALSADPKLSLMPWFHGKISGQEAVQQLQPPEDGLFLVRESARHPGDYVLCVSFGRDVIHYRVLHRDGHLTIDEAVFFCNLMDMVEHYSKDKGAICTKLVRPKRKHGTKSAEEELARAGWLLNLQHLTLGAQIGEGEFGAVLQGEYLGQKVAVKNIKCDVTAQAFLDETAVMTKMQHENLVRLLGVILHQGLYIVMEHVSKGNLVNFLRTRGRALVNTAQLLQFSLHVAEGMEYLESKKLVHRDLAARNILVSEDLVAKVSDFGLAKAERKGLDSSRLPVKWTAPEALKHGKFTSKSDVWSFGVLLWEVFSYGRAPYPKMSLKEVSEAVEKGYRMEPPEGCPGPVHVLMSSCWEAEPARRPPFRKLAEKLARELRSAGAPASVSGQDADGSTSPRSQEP
| Structure (SMILES) | remaining activity |
| --- | --- |
| Cn1c2ccccc2c2c3c(c4c5ccccc5n(CCC#N)c4c21)CNC3=O | 100% |
| COc1ccc(OC)c2c(=S)c3ccccc3[nH]c12 | 89.5% |
| Cc1ccc(Nc2nccc(N(C)c3ccc4c(C)n(C)nc4c3)n2)cc1S(N)(=O)=O | 104% |
| OCC(O)CCON=C1C(c2c(O)[nH]c3ccccc23)=Nc2ccccc21 (stereo not drawn) | 101% |
| COc1cc2nccc(Oc3ccc(NC(=S)NC(=O)c4ccccc4C)cc3)c2cc1OC | 93% |
| CO[C@H]1C[C@@H]2CC[C@@H](C)[C@@](O)(O2)C(=O)C(=O)N2CCCC[C@H]2C(=O)O[C@H]([C@H](C)C[C@@H]2CC[C@@H](O)[C@H](OC)C2)CC(=O)[C@H](C)/C=C(\C)[C@@H](O)[C@@H](OC)C(=O)[C@H](C)C[C@H](C)/C=C/C=C/C=C/1C | 92% |
| O=C(O)c1ccc2c3c1cccc3c(=O)n1c3ccccc3nc21 | 94% |
| NCCNc1ncc(C(N)=O)c(Nc2cccc(C(F)(F)F)c2)n1 | 94.5% |
| COc1cc2ncnc(Nc3ccc(Oc4ccccc4)cc3)c2cc1OC | 94.3% |
| N#CC(C#N)=C(N)/C(C#N)=C/c1ccc(O)cc1 | 92.5% |
| Cn1sc(=O)n(Cc2ccccc2)c1=O | 95.3% |
| O=C1NC(=O)C(c2cn(CCCn3ccnc3)c3ccccc23)=C1Nc1ccccc1 | 89.8% |
| Nc1[nH]nc2nc3ccccc3nc12 | 91.9% |
| COc1cc2ncnc(Nc3ccc(F)c(Cl)c3)c2cc1OCCCN1CCOCC1 | 86.4% |
| O=C1NC(=O)C(c2cn(CCCO)c3ncccc23)=C1c1cnccn1 | 95.5% |

Study 2
Compound: CS(=O)(=O)NCC[C@H](NC(=O)c1cncc2c1cnn2-c1ccc(F)cc1)c1ccnc(S(C)(=O)=O)c1
Technique: competition with immobilised ligand
Concentration: 1 µM
| target | observed | remaining binding [%] |
| --- | --- | --- |
| Cyclin-dependent kinase-like 2 (CDKL2, Homo sapiens, UniProt Q92772) | binding | 100 |
| Cyclin-dependent kinase 15 (CDK15, Homo sapiens, UniProt Q96Q40) | cell-free assay | 79 |
| Leukocyte tyrosine kinase receptor (LTK, Homo sapiens, UniProt P29376) | cell-free assay | 100 |
| Aurora kinase B (AURKB, Homo sapiens, UniProt Q96GD4) | cell-free assay | 100 |
| cAMP-dependent protein kinase catalytic subunit PRKX (PRKX, Homo sapiens, UniProt P51817) | cell-free assay | 100 |
| Myosin-IIIa (MYO3A, Homo sapiens, UniProt Q8NEV4) | binding | 93 |
| Calcium/calmodulin-dependent protein kinase type 1 (CAMK1, Homo sapiens, UniProt Q14012) | cell-free assay | 94 |

Study 3
Organism: Sarcocystis neurona
Observed: parasite growth
Concentration: 10 µM
Time: 96 h
Notes: second screen
Baseline: untreated
| Compound | log2 fold change |
| --- | --- |
| C=CC1=C(C(=O)O)N2C(=O)[C@@H](NC(=O)/C(=N\O)c3csc(N)n3)[C@H]2SC1 | 0.13 |
| CC(c1cc2ccccc2s1)N(O)C(N)=O (stereo not drawn) | 0.73 |
| CC(C(=O)O)c1ccc(CC2CCCC2=O)cc1 (stereo not drawn) | 0.22 |
| Cc1[nH]c(=O)c(C#N)cc1-c1ccncc1 | 0.45 |
| O=C(O)CCc1nc(-c2ccccc2)c(-c2ccccc2)o1 | 0.23 |
| COc1c(N2CCNC(C)C2)c(F)cc2c(=O)c(C(=O)O)cn(C3CC3)c12 (stereo not drawn) | -0.18 |

Study 4
Compound: O=C(NC1CCNCC1)c1[nH]ncc1NC(=O)c1c(Cl)cccc1Cl
Technique: trypan blue exclusion
Time: 48 h
Baseline: untreated
| cell line | concentration | viability [%] |
| --- | --- | --- |
| HuT78 | 10 µM | 30.2 |
| HH | 0.001 µM | 100 |
| HuT78 | 1 µM | 48.3 |
| HuT78 | 0.1 µM | 102 |
| HuT78 | 0.0001 µM | 107 |

Excerpt of the above (study 3):
| Compound | log2 fold change |
| --- | --- |
| Cc1[nH]c(=O)c(C#N)cc1-c1ccncc1 | 0.45 |
| O=C(O)CCc1nc(-c2ccccc2)c(-c2ccccc2)o1 | 0.23 |
| COc1c(N2CCNC(C)C2)c(F)cc2c(=O)c(C(=O)O)cn(C3CC3)c12 (stereo not drawn) | -0.18 |
